{"data": "Measured values from different studies", "note": "± gives the spread as reported.", "chain of UniProt P06493 (whole entry, looked up)": "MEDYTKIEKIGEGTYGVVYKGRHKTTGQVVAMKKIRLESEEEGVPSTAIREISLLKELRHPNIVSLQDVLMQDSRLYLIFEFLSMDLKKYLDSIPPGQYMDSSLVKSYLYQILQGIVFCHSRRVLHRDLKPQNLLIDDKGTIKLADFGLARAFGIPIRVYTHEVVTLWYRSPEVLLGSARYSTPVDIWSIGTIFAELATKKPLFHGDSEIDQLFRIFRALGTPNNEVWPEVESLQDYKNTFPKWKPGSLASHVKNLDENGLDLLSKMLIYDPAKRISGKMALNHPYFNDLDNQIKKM", "chain of UniProt P21729 (whole entry, looked up)": "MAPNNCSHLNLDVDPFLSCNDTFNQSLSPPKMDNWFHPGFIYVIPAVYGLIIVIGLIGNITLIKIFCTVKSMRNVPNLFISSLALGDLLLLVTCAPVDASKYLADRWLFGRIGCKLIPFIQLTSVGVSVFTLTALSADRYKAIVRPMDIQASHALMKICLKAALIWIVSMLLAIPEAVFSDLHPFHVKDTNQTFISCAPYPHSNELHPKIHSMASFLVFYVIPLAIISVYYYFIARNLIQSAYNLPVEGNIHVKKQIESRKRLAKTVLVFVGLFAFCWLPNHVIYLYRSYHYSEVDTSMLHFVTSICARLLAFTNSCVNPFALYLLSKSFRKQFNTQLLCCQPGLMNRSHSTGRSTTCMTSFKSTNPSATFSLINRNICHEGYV"}
{"SMILES": "N=C(N)NCCC[C@@H]1NC(=O)[C@H](CC(=O)NC23CNCCNCC(N)(CNCCNC2)CNCCNC3)NC(=O)[C@@H](Cc2ccccc2)NC(=O)[C@H](CC(=O)O)NC(=O)CNC1=O [copper-64 labelled]", "system": "Nu/Nu mouse, male, tumour-bearing, lung", "conditions": "intravenous, 10 µCi, 24 h", "endpoint": "tissue uptake", "value": "0.63 ± 0.09 %ID/g"}
{"SMILES": "CCCC[C@H](NC(=O)CCCCCCCNC(=O)c1ccc(NN)nc1)C(=O)N[C@H]1CC(=O)NCCCC[C@@H](C(N)=O)NC(=O)[C@H](Cc2c[nH]c3ccccc23)NC(=O)[C@H](CCCNC(=N)N)NC(=O)[C@@H](Cc2ccccc2)NC(=O)[C@H](Cc2c[nH]cn2)NC1=O [technetium-99m labelled]", "system": "C57 mouse, B16/F1 melanoma, lung", "conditions": "2 h, together with: NDP-MSH 10 µg (6.07 nmol) co-injected", "endpoint": "tissue uptake", "value": "0.91 ± 0.06 %ID/g"}
{"SMILES": "CN[C@](C)(C[18F])C(=O)O", "tested on": "A549 tumour model", "system": "host not given, bone", "conditions": "2 h, tumour-bearing", "endpoint": "tracer uptake", "value": "1.2 %ID/g"}
{"SMILES": "CCCNC(=O)[C@H](CC(C)C)NC(=O)[C@H](Cc1c[nH]cn1)NC(=O)CNC(=O)[C@@H](NC(=O)[C@H](C)NC(=O)[C@H](Cc1c[nH]c2ccccc12)NC(=O)[C@H](CCC(N)=O)NC(=O)[C@@H](Cc1ccccc1)NC(=O)CCCCCNC(=O)CN1CCN(CC(=O)O)CCN(CC(=O)O)CCN(CC(=O)O)CC1)C(C)C [indium-111 labelled]", "tested on": "Gastrin-releasing peptide receptor (Mus musculus, UniProt P21729)", "test": "biodistribution", "system": "CF-1 mice, brain", "conditions": "intravenous, 1 h, unblocked", "endpoint": "tissue uptake", "value": "0.01 %ID/g"}
{"SMILES": "N=C(N)NCCC[C@@H]1NC(=O)[C@H](CCCCNC(=O)CCOCCOCCOCCOCCNC(=O)CN2CCN(CC(=O)O)CCN(CC(=O)O)CCN(CC(=O)O)CC2)NC(=O)[C@@H](Cc2ccccc2)NC(=O)[C@H](CC(=O)O)NC(=O)CNC1=O [indium-111 labelled]", "system": "female athymic nude mice, liver", "conditions": "intravenous, 3 µCi, 0.5 h, U-87 MG glioma xenograft", "endpoint": "tissue uptake", "value": "2.79 ± 0.02 %ID/g"}
{"SMILES": "CCCC[C@H](NC(=O)CNC(=O)CNC(=O)c1ccc(NN)nc1)C(=O)N[C@H]1CC(=O)NCCCC[C@@H](C(N)=O)NC(=O)[C@H](Cc2c[nH]c3ccccc23)NC(=O)[C@H](CCCNC(=N)N)NC(=O)[C@@H](Cc2ccccc2)NC(=O)[C@H](Cc2c[nH]cn2)NC1=O [technetium-99m labelled]", "system": "C57 mouse, B16/F1 melanoma-bearing, pancreas", "conditions": "intravenous, 24 h", "endpoint": "tissue uptake", "value": "0.03 ± 0.02 %ID/g"}
{"SMILES": "O=C(O)CCC(NP(=O)(O)OCCC[C@@H](NC(=O)CCC(NC(=O)c1ccc([18F])cc1)C(=O)O)C(=O)O)C(=O)O (stereo partly shown)", "tested on": "PC-3 tumour model", "system": "host not given, liver", "conditions": "intravenous, 2 h, tumour-bearing", "endpoint": "tracer uptake", "value": "0.44 %ID/g"}
{"SMILES": "CSCC[C@H](NC(=O)[C@H](CC(C)C)NC(=O)[C@H](Cc1c[nH]cn1)NC(=O)CNC(=O)[C@@H](NC(=O)[C@H](C)NC(=O)[C@H](Cc1c[nH]c2ccccc12)NC(=O)[C@H](CCC(N)=O)NC(=O)CCCCCNC(=O)CNC(=O)CNC(=O)CNC(=O)CSC(C)=O)C(C)C)C(N)=O [technetium-99m labelled]", "system": "healthy Swiss mouse, small intestine, contents removed", "conditions": "intravenous, 18.5 MBq, 240 min", "endpoint": "tissue uptake", "value": "0.38 ± 0.11 %ID/g"}
{"SMILES": "CC(=O)NC(Cc1ccc(Br)c(Cl)c1)C(=O)N[C@@H](C)C(=O)N1CCC[C@H]1C(=O)N1CCC[C@H]1C(=O)N[C@@H](CCC(=O)O)C(=O)N[C@@H](Cc1c[nH]cn1)C(=O)N[C@@H](CO)C(=O)N[C@H](C(=O)N[C@@H](C)C(N)=O)[C@@H](C)OP(=O)(O)O (stereo partly shown)", "tested on": "Cyclin-dependent kinase 1, with cyclin E1 (CDK1, Homo sapiens, UniProt P06493)", "test": "enzyme activity, inhibitor", "conditions": "10 µM", "endpoint": "inhibition", "value": "0.77%"}
{"SMILES": "N=C(N)NCCC[C@@H]1NC(=O)[C@H](CCCCNC(=O)CC[C@H](NC(=O)CCOCCOCCOCCOCCNC(=O)CC[C@H](NC(=O)CN2CCN(CC(=O)O)CCN(CC(=O)O)CCN(CC(=O)O)CC2)C(=O)NCCOCCOCCOCCOCCC(=O)N[C@@H](CCC(=O)NCCCC[C@@H]2NC(=O)[C@@H](Cc3ccccc3)NC(=O)[C@H](CC(=O)O)NC(=O)CNC(=O)[C@H](CCCNC(=N)N)NC2=O)C(=O)NCCCC[C@@H]2NC(=O)[C@@H](Cc3ccccc3)NC(=O)[C@H](CC(=O)O)NC(=O)CNC(=O)[C@H](CCCNC(=N)N)NC2=O)C(=O)NCCCC[C@@H]2NC(=O)[C@@H](Cc3ccccc3)NC(=O)[C@H](CC(=O)O)NC(=O)CNC(=O)[C@H](CCCNC(=N)N)NC2=O)NC(=O)[C@@H](Cc2ccccc2)NC(=O)[C@H](CC(=O)O)NC(=O)CNC1=O [indium-111 labelled]", "system": "female athymic nude mice, eyes", "conditions": "intravenous, 3 µCi, 1 h, U-87 MG glioma xenograft", "endpoint": "tissue uptake", "value": "1.1 ± 0.22 %ID/g"}
{"SMILES": "C[C@@H](O)[C@H](NC(=O)[C@@H]1CSSC[C@H](NC(=O)[C@@H](Cc2ccccc2)NC(=O)CN2CCCN3CCN(CCCN(CP(=O)(O)O)CC3)CC2)C(=O)N[C@@H](Cc2ccc(O)cc2)C(=O)N[C@H](Cc2c[nH]c3ccccc23)C(=O)N[C@@H](CCCCN)C(=O)N[C@@H]([C@@H](C)O)C(=O)N1)C(=O)O [copper-64 labelled]", "system": "male Lewis rat, pituitary", "conditions": "4 h, together with: Y3-TATE 200 µg", "endpoint": "tissue uptake", "value": "0.3 ± 0.07 %ID/g"}
{"SMILES": "N=C(N)NCCC[C@@H]1NC(=O)[C@H](CCCCNC(=O)CNC(=O)CNC(=O)CNC(=O)CC[C@H](NC(=O)c2ccc(NN=Cc3ccccc3S(=O)(=O)O)nc2)C(=O)NCC(=O)NCC(=O)NCC(=O)NCCCC[C@@H]2NC(=O)[C@@H](Cc3ccccc3)NC(=O)[C@H](CC(=O)O)NC(=O)CNC(=O)[C@H](CCCNC(=N)N)NC2=O)NC(=O)[C@@H](Cc2ccccc2)NC(=O)[C@H](CC(=O)O)NC(=O)CNC1=O [technetium-99m labelled]", "system": "athymic nu/nu mouse, female, U-87 MG glioma xenograft, kidney", "conditions": "intravenous, 120 min", "endpoint": "tissue uptake", "value": "9.99 ± 0.61 %ID/g"}
{"SMILES": "N=C(N)NCCC[C@@H]1NC(=O)[C@H](CCCCNC(=O)CCOCCOCCOCCOCCNC(=O)CC[C@H](NC(=O)CCOCCOCCOCCOCCNC(=O)CC[C@H](NC(=O)CN2CCN(CC(=O)O)CCN(CC(=O)O)CCN(CC(=O)O)CC2)C(=O)NCCOCCOCCOCCOCCC(=O)N[C@@H](CCC(=O)NCCOCCOCCOCCOCCC(=O)NCCCC[C@@H]2NC(=O)[C@@H](Cc3ccccc3)NC(=O)[C@H](CC(=O)O)NC(=O)CNC(=O)[C@H](CCCNC(=N)N)NC2=O)C(=O)NCCOCCOCCOCCOCCC(=O)NCCCC[C@@H]2NC(=O)[C@@H](Cc3ccccc3)NC(=O)[C@H](CC(=O)O)NC(=O)CNC(=O)[C@H](CCCNC(=N)N)NC2=O)C(=O)NCCOCCOCCOCCOCCC(=O)NCCCC[C@@H]2NC(=O)[C@@H](Cc3ccccc3)NC(=O)[C@H](CC(=O)O)NC(=O)CNC(=O)[C@H](CCCNC(=N)N)NC2=O)NC(=O)[C@@H](Cc2ccccc2)NC(=O)[C@H](CC(=O)O)NC(=O)CNC1=O [indium-111 labelled]", "system": "female athymic nude mice, blood", "conditions": "intravenous, 3 µCi, 0.5 h, U-87 MG glioma xenograft", "endpoint": "tissue uptake", "value": "0.92 ± 0.06 %ID/g"}
{"note": "Some of these lines once more:"}
{"SMILES": "CN[C@](C)(C[18F])C(=O)O", "tested on": "A549 tumour model", "system": "host not given, bone", "conditions": "2 h, tumour-bearing", "endpoint": "tracer uptake", "value": "1.2 %ID/g"}
{"SMILES": "CCCNC(=O)[C@H](CC(C)C)NC(=O)[C@H](Cc1c[nH]cn1)NC(=O)CNC(=O)[C@@H](NC(=O)[C@H](C)NC(=O)[C@H](Cc1c[nH]c2ccccc12)NC(=O)[C@H](CCC(N)=O)NC(=O)[C@@H](Cc1ccccc1)NC(=O)CCCCCNC(=O)CN1CCN(CC(=O)O)CCN(CC(=O)O)CCN(CC(=O)O)CC1)C(C)C [indium-111 labelled]", "tested on": "Gastrin-releasing peptide receptor (Mus musculus, UniProt P21729)", "test": "biodistribution", "system": "CF-1 mice, brain", "conditions": "intravenous, 1 h, unblocked", "endpoint": "tissue uptake", "value": "0.01 %ID/g"}
